Measurements from different studies.
Lines come from different studies, so protocols differ. In brackets after ≈: the same amount, converted by molar mass.
Organism: Pseudomonas aeruginosa

SMILES	test	test system	setting	how to read	endpoint	value
C#CCOc1ccc(CN[C@@]2(C)C[C@H](O[C@H]3[C@H](Oc4c5cc6cc4Oc4ccc(cc4Cl)[C@@H](O)[C@@H](NC(=O)[C@@H](CC(C)C)NC)C(=O)N[C@@H](CC(N)=O)C(=O)N[C@H]6C(=O)N[C@H]4C(=O)N[C@H](C(=O)N[C@H](C(=O)N[C@@H](CCCNC(=N)N)C(N)=O)c6cc(O)cc(O)c6-c6cc4ccc6O)[C@H](O)c4ccc(c(Cl)c4)O5)O[C@H](CO)[C@@H](O)[C@@H]3O)O[C@@H](C)[C@H]2O)cc1OC	broth microdilution	ATCC 35218, cation-adjusted Mueller-Hinton broth	–	–	MIC	4 µM
CCCC(=O)C#Cc1ccc(F)c(F)c1	–	–	10 µM, 24 h	baseline: untreated	exoprotease production	89%
CC(C)[C@H]1NC(=O)[C@H](Cc2ccccc2)NC(=O)[C@@H](C(C)C)NC(=O)[C@@H](C)NC(=O)[C@H](CO)NC(=O)[C@@H](Cc2c(-c3ccc(-c4ccccc4)cc3)[nH]c3ccccc23)NC(=O)[C@@H](CO)NC1=O	broth dilution	–	–	–	MIC90	> 50 µM
C#CCCC1(CCC(=O)NCc2c(O)c(=O)cc(C)n2C)N=N1	microbial growth	PAO1	–	–	IC50	4.59 µM
Cc1nc2ccc(N)cc2s1	swarming area, modified FAB agar	PA14-lux	200 µM, 24 h	baseline: DMSO vehicle	inhibition	11.9%
CC(C)[C@H]1NC(=O)[C@H](Cc2ccc(O)cc2)NC(=O)[C@@H](C(C)C)NC(=O)[C@@H](C)NC(=O)[C@H](CO)NC(=O)[C@@H](Cc2c(-c3ccc(-c4ccc5ccccc5c4)cc3)[nH]c3ccccc23)NC(=O)[C@@H](CO)NC1=O	broth dilution	–	–	–	MIC90	> 50 µM
C#CCOc1ccc(CN[C@@]2(C)C[C@H](O[C@H]3[C@H](Oc4c5cc6cc4Oc4ccc(cc4Cl)[C@@H](O)[C@@H](NC(=O)[C@@H](CC(C)C)NC)C(=O)N[C@@H](CC(N)=O)C(=O)N[C@H]6C(=O)N[C@H]4C(=O)N[C@H](C(=O)N[C@H](C(=O)NCC(N)=O)c6cc(O)cc(O)c6-c6cc4ccc6O)[C@H](O)c4ccc(c(Cl)c4)O5)O[C@H](CO)[C@@H](O)[C@@H]3O)O[C@@H](C)[C@H]2O)cc1OC	broth microdilution	ATCC 10145, cation-adjusted Mueller-Hinton broth	18 to 20 h, 37 °C, 0.002% polysorbate 80	–	MIC	> 128 µg/mL
CC[C@H](C)[C@H](NC(=O)[C@H](CCCNC(=N)N)NC(=O)[C@H](CO)NC(=O)[C@H](Cc1ccc(O)cc1)NC(=O)[C@@H](NC(=O)[C@@H](NC(=O)[C@H](C)NC(=O)CNC(=O)[C@H](CCCCN)NC(=O)[C@H](CCCCN)NC(=O)CCNC(=O)CCCCCNC(=O)[C@H](CCCNC(=N)N)NC(=O)CCCCCNC(=O)[C@H](CCCNC(=N)N)NC(=O)[C@H](CCCNC(=N)N)NC(=O)CCCCCNC(=O)[C@H](CCCNC(=N)N)NC(=O)[C@H](CCCNC(=N)N)NC(=O)CCCCCNC(=O)[C@H](CCCNC(=N)N)NC(=O)[C@H](CCCNC(=N)N)NC(=O)CCCCCNC(=O)[C@@H](N)CCCNC(=N)N)C(C)C)[C@@H](C)O)C(=O)N[C@@H](CO)C(=O)NCC(=O)N[C@@H](CCC(N)=O)C(=O)N[C@@H](Cc1ccc(O)cc1)C(=O)N[C@@H](CCCCN)C(=O)O	crystal violet	ATCC 27853	48 µM	–	biofilm biomass reduction	78%
CCC(C)CCC(=O)N[C@H](CCN)C(=O)N[C@@H](CCN)C(=O)N[C@@H](CCN)C(=O)N[C@@H](CC(C)C)C(=O)N[C@H](Cc1ccccc1)C(=O)N[C@@H](CCN)C(=O)N[C@@H](CCN)C(=O)N[C@@H](CC(C)C)C(N)=O (stereo partly drawn)	–	PAO1	24 h, 37 °C	–	MBC	> 128 µM
NCc1ccc(S(=O)(=O)c2ccc3nc(N)sc3c2)cn1	pyocyanin production	PA14-lux	200 µM, 18 h	baseline: DMSO vehicle	inhibition	-8.81%
C[C@@H](N)[C@H](O)CCCCCCCC(=O)CCCCCCCCCCCCCC[C@@H](O[C@@H]1O[C@H](CO)[C@H](O)[C@H](O)[C@H]1O)[C@H](N)CO	microbial growth, resazurin	ATCC27853	50 µM	–	inhibition	98%
Nc1nc2ccc(C(F)(F)F)cc2s1	swarming area, modified FAB agar	PA14-lux	200 µM, 24 h	baseline: DMSO vehicle	inhibition	33.5%
CC(C)C[C@H](NC(=O)[C@H](CC(C)C)NC(=O)[C@H](CCCCN)NC(=O)[C@H](Cc1ccccc1)NC(=O)[C@@H](NC(=O)[C@H](CCCNC(=N)N)NC(=O)[C@@H](N)CCCCN)C(C)C)C(=O)N[C@@H](CCCCN)C(=O)N[C@@H](CCCNC(=N)N)C(=O)N[C@@H](Cc1ccc(O)cc1)C(=O)N[C@@H](Cc1c[nH]c2ccccc12)C(=O)N[C@@H](CCCNC(=N)N)C(=O)N[C@@H](CCC(N)=O)C(=O)N[C@@H](CC(C)C)C(=O)N[C@@H](CCCCN)C(=O)N[C@@H](CCCCN)C(=O)N1CCC[C@H]1C(=O)N[C@H](C(=O)N[C@@H](CCCNC(=N)N)C(=O)NCCOCCOCC(=O)O)C(C)C	–	ATCC 10145-GFP	sub-MIC, 24 h	baseline: untreated	hemolytic activity	decreased
Nc1nc2ccc(Oc3cc[nH]c(=O)c3)cc2s1	absorbance	PA14-lux	200 µM, 18 h	baseline: DMSO	pyocyanin inhibition	21.4%
CC(C)[C@H]1NC(=O)[C@H](Cc2ccccc2)NC(=O)[C@@H](C(C)C)NC(=O)[C@@H](C)NC(=O)[C@H](CO)NC(=O)[C@@H](Cc2c(-c3ccc(-c4ccccc4)c(F)c3)[nH]c3ccccc23)NC(=O)[C@@H](CO)NC1=O	broth dilution	–	–	–	MIC90	> 50 µM
O=C(O)CN(CC(=O)O)CP(=O)(O)O	–	VIM-2 producer	32 µg/mL, together with: meropenem	–	meropenem MIC	1 µg/mL
CC(C)[C@H]1NC(=O)[C@H](Cc2ccccc2)NC(=O)[C@@H](C(C)C)NC(=O)[C@@H](C)NC(=O)[C@H](C)NC(=O)[C@@H](Cc2c(-c3ccc(-c4ccc5ccccc5c4)cc3)[nH]c3ccccc23)NC(=O)[C@@H](CO)NC1=O	broth dilution	–	–	–	MIC90	> 50 µM
Nc1nc2ccc(Oc3ccncc3)cc2s1	absorbance	PA14-lux	200 µM, 18 h	baseline: DMSO	pyocyanin inhibition	25.5%
CN[C@H](CC(C)C)C(=O)N[C@H]1C(=O)N[C@@H](CC(N)=O)C(=O)N[C@H]2C(=O)N[C@H]3C(=O)N[C@H](C(=O)N[C@H](C(=O)NCc4cn(CCCCC(=O)N[C@H](C(=O)N[C@@H](CCN)C(=O)N[C@H]5CCNC(=O)[C@H]([C@@H](C)O)NC(=O)[C@H](CCN)NC(=O)[C@H](CCN)NC(=O)[C@H](CC(C)C)NC(=O)[C@@H](CC(C)C)NC(=O)[C@H](CCN)NC5=O)[C@@H](C)O)nn4)c4cc(O)cc(O)c4-c4cc3ccc4O)[C@H](O)c3ccc(c(Cl)c3)Oc3cc2cc(c3O[C@@H]2O[C@H](CO)[C@@H](O)[C@H](O)[C@H]2O[C@H]2C[C@](C)(N)[C@H](O)[C@H](C)O2)Oc2ccc(cc2Cl)[C@H]1O	broth microdilution	ATCC 17978, cation-adjusted Mueller-Hinton broth	–	–	MIC	25 µM
Nc1nc2ccc(S(=O)(=O)c3cccnc3)cc2s1	pyocyanin production	PA14-lux	200 µM, 18 h	baseline: DMSO vehicle	inhibition	7.19%
CC(C)C[C@H](NC(=O)[C@H](CCN)NC(=O)[C@H](CCN)NC(=O)[C@@H](Cc1ccccc1)NC(=O)[C@H](CC(C)C)NC(=O)[C@H](CCN)NC(=O)[C@H](CCN)NC(=O)[C@@H](CCN)NC(=O)CCSCCOC(=O)c1ccccc1)C(N)=O	–	PAO1	24 h, 37 °C	–	MBC	128 µM (≈ 144 µg/mL)
Nc1nc2ccc(S(=O)(=O)c3cn[nH]c3)cc2s1	pyocyanin production	PA14-lux	200 µM, 18 h	baseline: DMSO vehicle	inhibition	-6.39%
C#CCNC(=O)[C@H]1NC(=O)[C@H]2NC(=O)[C@H](NC(=O)[C@@H]3NC(=O)[C@H](CC(N)=O)NC(=O)[C@H](NC(=O)[C@@H](CC(C)C)NC)[C@H](O)c4ccc(c(Cl)c4)Oc4cc3cc(c4O[C@@H]3O[C@H](CO)[C@@H](O)[C@H](O)[C@H]3O[C@H]3C[C@](C)(N)[C@H](O)[C@H](C)O3)Oc3ccc(cc3Cl)[C@H]2O)c2ccc(O)c(c2)-c2c(O)cc(O)cc21	broth microdilution	ATCC 17978, cation-adjusted Mueller-Hinton broth	–	–	MIC	86 µM
CCCC(=O)OCCSC[C@H](N)C(=O)N[C@H](CCN)C(=O)N[C@@H](CCN)C(=O)N[C@@H](CCN)C(=O)N[C@@H](CC(C)C)C(=O)N[C@H](Cc1ccccc1)C(=O)N[C@@H](CCN)C(=O)N[C@@H](CCN)C(=O)N[C@@H](CC(C)C)C(N)=O	–	PAO1	24 h, 37 °C	–	MBC	> 128 µM
